Results of several laboratories.
Every numbered part comes from another study and shows a few of its results, in no order. Substitutions count along the parent as printed.

Study 1
Target: Histone acetyltransferase KAT6A, both winged helices, GST fusion (KAT6A, Homo sapiens, UniProt Q92794, residues 1-181)
Method: protein binding microarray
Molecule type: double-stranded DNA, one strand shown
Matrix: in vitro
Concentration: not given
Notes: 8-mer, flanks averaged, mean of 2 arrays, mostly near background
Baseline: not given
Reading: higher = stronger binding
Construct (chain): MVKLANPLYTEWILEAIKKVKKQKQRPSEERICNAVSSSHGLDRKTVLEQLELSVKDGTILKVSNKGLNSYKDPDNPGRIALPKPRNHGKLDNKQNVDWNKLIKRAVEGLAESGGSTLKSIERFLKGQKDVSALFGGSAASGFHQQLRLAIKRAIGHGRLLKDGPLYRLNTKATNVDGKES
Strand	E-score
CTGATCCC	-0.152
ATACCTCG	-0.0732
CAATGAAA	-0.185
ACTGTAAT	-0.0661
ATGTGATA	0.0249
CGGGATGC	0.221
GCCAGACC	0.029
ATCCCTAG	-0.167
ACGATTCC	-0.0328
GGAGCGCA	0.264
TGGCTTAA	-0.0699

Study 2
Target: Centromere-binding protein 1, full length, His-tagged (CBF1, Saccharomyces cerevisiae, UniProt P17106, residues 1-351)
UniProt P17106, sequence (whole entry, looked up): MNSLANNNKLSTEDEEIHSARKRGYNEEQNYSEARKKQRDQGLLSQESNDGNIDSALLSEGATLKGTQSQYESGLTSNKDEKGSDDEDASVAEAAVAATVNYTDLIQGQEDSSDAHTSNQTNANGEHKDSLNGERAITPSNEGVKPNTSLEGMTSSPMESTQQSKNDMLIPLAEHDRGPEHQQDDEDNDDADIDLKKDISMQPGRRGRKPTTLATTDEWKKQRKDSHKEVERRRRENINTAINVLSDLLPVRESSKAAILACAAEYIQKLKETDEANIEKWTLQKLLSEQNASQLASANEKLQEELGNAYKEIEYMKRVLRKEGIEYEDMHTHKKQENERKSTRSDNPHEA
Method: competition protein-binding microarray
Molecule type: double-stranded DNA, one strand shown
Matrix: in vitro
Concentration: 2 µM
Notes: whole 60-bp probe, lowest competitor level
Together with: Pho4 competitor, 0.05 µM
Reading: higher = stronger binding
Constant ends, left off below: … GTCTTGATTCGCTTGACGCTGCTG
Strand	fluorescence intensity [a.u.]
TGCGCAACAACTTGGACTGTGGGTGTATGTCTAGAA	59.3
CGGGGTTAAGTTTGTCACTATACTTGCTTGCAGCAG	77.8
GGGCTTACTTTATCGCACGTGATGGTTCCCACAGTA	3540
ATGAAGTTATTTCCAATCGTGCCAGTGAGATCCTAG	78.8
TTATTTTGGGCCCTCGTTCAAGGGCCATCTCACCCT	65.6
TCGCGAACCCCGTCAACCGTGATGGACGAGATATGA	57.1
TTTATTGATTAACAAATAATCGAGACACACTATAGA	88.5
AAAGCGGTAATTTGATATGTGGGTGCAGATATCTAT	75.9
CTTTCCCGATCTTGTCACGGCACTTTAGCACATTTG	100
AAATTACTAAGTTGTCACGGGACTTACCCCGTATGA	1620
TCCCTTCAAACTCACCACGTGATGGTCTAGACGTTG	4270
TGATCGCGCAGGATGGGACAATTAAACGATCTTTGC	71.8
CCGGGGACGACGCTCCTCGTGCTTTCTTCCCATCTA	74.5
TACTGTACCAATCACCACGTTTTGACTATGTGGACT	104
GGTTTCTGAGGCTCGCACAGGAGGCACCCCAGTTCT	66.1
CGTCCTAGTGATTGTACGGTGGGTGCCATGAGGAAG	69.1
CCGACGTTGGCTTATTATGTGACGGATTGTTTTCAG	73.9
CATACACCAAACGCAAATGTGCGGACGGACAAATTC	87
TGCTGTTTCCTTGTCCACGTGAGTCAGTTCTGCAGA	2180
AAATTACTAAGTTGCATGGTGGGTGACGCCGTATGA	66.8
GTCTTGTCTCATTTTCACGTGTTTTTCCCCACTTCA	737

Study 3
Target: ABI1, truncated, D143A, DHFR fusion (Arabidopsis thaliana)
Method: DHFR PCA, deep sequencing
Matrix: yeast
Notes: methotrexate growth selection, single substitutions
Together with: (+)-ABA 0.0091 µM
Baseline: wild-type fitted maximum
Reading: higher = stronger binding
Starting sequence: PYL1, truncated, DHFR fusion (Arabidopsis thaliana); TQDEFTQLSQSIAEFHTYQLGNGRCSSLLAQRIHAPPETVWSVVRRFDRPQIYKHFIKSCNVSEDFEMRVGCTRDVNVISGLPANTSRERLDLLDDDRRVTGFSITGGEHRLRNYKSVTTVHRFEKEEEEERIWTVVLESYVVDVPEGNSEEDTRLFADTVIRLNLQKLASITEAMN
Change	relative binding score
R155F	7.42%
K54N	-1.79%
Q19S	24.6%
W41R	4.37%
Y115H	8.16%
S87V	65.8%
W41M	0.434%
N77T	69.4%

Study 4
Target: Interferon regulatory factor 7, full length, phosphomimetic (IRF7, Homo sapiens, UniProt Q92985, residues 1-503, S471D/S472D/S475D/S476D/S477D/S483D/S484D/S487D)
UniProt Q92985, sequence (whole entry, unmodified, looked up): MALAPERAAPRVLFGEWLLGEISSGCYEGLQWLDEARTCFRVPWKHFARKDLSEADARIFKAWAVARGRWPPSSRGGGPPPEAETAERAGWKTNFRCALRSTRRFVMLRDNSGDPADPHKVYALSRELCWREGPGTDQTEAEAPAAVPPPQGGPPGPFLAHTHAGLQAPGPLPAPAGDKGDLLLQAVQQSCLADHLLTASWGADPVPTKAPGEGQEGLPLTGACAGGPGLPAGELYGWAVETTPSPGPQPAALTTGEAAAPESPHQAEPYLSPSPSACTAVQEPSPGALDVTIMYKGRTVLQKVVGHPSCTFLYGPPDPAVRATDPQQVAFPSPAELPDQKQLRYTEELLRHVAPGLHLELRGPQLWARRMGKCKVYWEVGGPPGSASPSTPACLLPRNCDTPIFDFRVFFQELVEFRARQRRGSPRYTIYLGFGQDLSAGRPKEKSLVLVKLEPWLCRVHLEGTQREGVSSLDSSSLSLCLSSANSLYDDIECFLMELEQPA
Method: protein-binding microarray
Molecule type: double-stranded DNA, one strand shown
Matrix: in vitro
Concentration: 2200 nM top
Notes: 60-bp whole probe
Together with: salmon DNA 0.4 mg/ml
Baseline: random background probes
Reading: higher = stronger binding
Constant ends, left off below: GCCTAGCAC … GTCTTGATTCGCTTGACGCTGCTG
Strand	fitted relative affinity [z-score]
TTAGATCTCAGTATCGAATAGTGCTAG	-0.06
GACGGACTGGACTAACGGGACGTGCTA	-1.11
TCAGTTCTCAGACTGGGACTGTGCTAG	0.857
TTAGGTATCAGTTTCGGTTAGTGCTAG	7.5
GACGGTATCGGGATTGGGGACGTGCTA	-0.238
GAACATTTCAATTAGAAAAAGTGCTAG	-0.613
GACGAACTGCTTATCCTGACGTGCTAG	0.597
TTAGGTTTTGACACTGGGTTAGTGCTA	0.102
TCATTACCGCATATCGGACTGTGCTAG	0.786
GACGACCTGGGGTATCGAGACGTGCTA	-0.167
TGAGGTATCCTTCTCCTTTAGTGCTAG	0.843
TTAGGCCTCGGTCTCGGTTAGTGCTAG	0.16
GACGGTCTCCTTCTCCTAACGTGCTAG	1.2
TCATGTTTCCATTTTCTACTGTGCTAG	5.03

Study 5
Target: RNA binding protein fox-1 homolog 2, RRM domain, GST-SBP tag (RBFOX2, Homo sapiens, UniProt O43251-10, residues 100-194)
Method: RNA Bind-n-Seq
Molecule type: RNA
Matrix: in vitro
Concentration: 365 nM
Notes: natural RNA segment, single round, ends assumed
Baseline: no-protein control
Reading: higher = stronger binding
Constant ends, left off below: GGGAGUUCUACAGUCCGACGAUC … UGGAAUUCUCGGGUGCCAA
Target sequence (chain): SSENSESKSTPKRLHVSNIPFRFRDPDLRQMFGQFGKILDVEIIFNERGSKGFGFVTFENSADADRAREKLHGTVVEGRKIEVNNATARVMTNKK
Strand	RBNS enrichment (R)
GGGAAUAAAAGUCAGAGCCUUACACAUGUCCAGCAAAAACUAUGGUUGGGAUACACCUAUUAUCCCCUAAAAACAUACAAAUAAUGCAAAAGGAUGAUGGAGCUUCCUGG	0.392
AUUGUAUUCUACUGACAGGAUGCGGUUUUAAAUUUUAUGCCAUCUGUUAUUUAUUCUUGUUUAUUCAAAUGACUGCAAUAACAAUGUUUCAUUCACUAAUGUUAAGGUUA	0.656
CAACCAUGCACACCACAGAGAGCCCUUAAGCCCUCCCCUCCCCAUUUCCCCUAAGUCAAAGCCAUGACUAGGAUGUACCAGCCACCUGCCUCUGAUGUCGGCGAAUCCUG	0.67
GGCAUUCCCAGGGGCUCCUGUCCAGCUGUCUCUGUCUGGGAAUGAUCUAACCUGGGUUGAGCCUCCUCUCUGCUCUGCCACCGAAAUAAACGUUGAAUUUGGAGUUUGUA	1.1
AAAUGUGCUGUUUUGUAUAAAGCAUGAUAAUUACUUUUUAACAGAAGUUCAUUUUUAAAGAUUACUCCCUUUUCUUUCUCUCUUUUUUUUGAGACAAUUUCUCUCUUGUU	3.63
AGAGAUGAACGAAAUCGGGAGCCCUCGCCCAAGGCUAGGGCAUCGGGGAUGGGGUGUGUGGGGAGGGGACCUGUGAAUCCUGACCACCUUGAAUCCAGAACCAGGACUUU	0.45
GGGAAAUCUCAGAACUGGUUUAUUUGGUGUCGUGGAACCUCUUACCGCUUUCAAUACACAAUUAGUAAUCAACUGUUUUGUAUACUUGUUUUCAGUUUUCAUUUCGACAA	0.352
ACCUUUUGUAUUUAAUUUUAAAGUCAGUGUACUGCAAGGAAGCUGGAUGCAAGAUAGAUACUAUAUUAAACUGUACUGUUAUUUAAGAUGUAAUAAAGCAGUUUGACAUG	0.269
UUUGUAUAUCUCCAGGCAAGGUGAAGGGUACCCUUCGGACCCGCCUCAUAAACCAUCUCUGCAUCACCAUGAACCCAGACUAGCUGUGGUGCCAGAAACCUGAACUUAAA	0.497
GAGCCUGACAUCAAGCGCCUCCUUAAAGUUGCCAUAUAGAUGUGAACUGCUCAACACACAGAUCUCCUACUCCAUCCAGUCCUGAGGAGCCUUAGGAUGCAGCAUGCCUU	2.37
CUUACUGAGGCGCUGAAGAGGCUCCCCCCACCCCCUUGAGGGUCAGUUUGUUAUUUCUCAAGUAUACAGCACCGAGGUCAGUCAGUUGUCACUCCCUGAUGACGUGUAGC	0.355

Study 6
Target: Sal-like protein 4, full length isoform B (SALL4, Homo sapiens, UniProt Q9UJQ4-2, residues 1-616)
Method: universal PBM
Molecule type: double-stranded DNA, one strand shown
Matrix: in vitro
Concentration: not given
Notes: 8-mer, flanks averaged, mean of replicates
Reading: higher = stronger binding
Target sequence (chain): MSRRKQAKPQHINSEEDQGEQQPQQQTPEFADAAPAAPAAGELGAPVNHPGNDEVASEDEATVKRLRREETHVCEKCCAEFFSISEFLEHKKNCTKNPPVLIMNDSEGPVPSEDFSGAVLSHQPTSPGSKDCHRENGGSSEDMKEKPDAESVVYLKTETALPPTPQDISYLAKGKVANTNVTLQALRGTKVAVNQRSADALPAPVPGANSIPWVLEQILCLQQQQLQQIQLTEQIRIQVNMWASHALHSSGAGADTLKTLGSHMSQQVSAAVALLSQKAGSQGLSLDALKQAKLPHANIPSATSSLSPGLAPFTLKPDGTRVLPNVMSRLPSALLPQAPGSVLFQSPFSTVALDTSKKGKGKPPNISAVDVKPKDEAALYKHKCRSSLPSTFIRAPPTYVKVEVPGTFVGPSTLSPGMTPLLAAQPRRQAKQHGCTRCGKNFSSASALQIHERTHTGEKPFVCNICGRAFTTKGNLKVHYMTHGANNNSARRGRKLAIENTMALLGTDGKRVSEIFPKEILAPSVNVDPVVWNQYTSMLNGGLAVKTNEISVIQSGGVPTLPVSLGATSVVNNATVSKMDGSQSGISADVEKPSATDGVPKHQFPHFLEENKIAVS
Strand	E-score
ATTACTGG	0.114
AGACGAAC	0.00318
ACGACAAT	0.16
AATCAACT	0.074
AGGTTTTG	-0.0999
CGTAAACA	0.119
ACGCCAAC	-0.061
CCAGCGAA	-0.223
GCGTGGCA	-0.256
CGGTGGTA	-0.169
AAACGGTA	0.0624
CCGAACTC	-0.217
GTCTTATA	0.289
TAGGCCAA	0.0921
ACGGCACC	-0.308
AGTGCGAG	-0.165
CCGTTACA	0.0263
ACGATTAT	0.308

A few entries again (study 6):
Strand	E-score
AGGTTTTG	-0.0999
ACGCCAAC	-0.061
CGGTGGTA	-0.169
CCAGCGAA	-0.223
ACGACAAT	0.16
GCGTGGCA	-0.256
ACGATTAT	0.308
TAGGCCAA	0.0921
CCGTTACA	0.0263
AGACGAAC	0.00318
GTCTTATA	0.289
CCGAACTC	-0.217
AATCAACT	0.074
AGTGCGAG	-0.165
